# Results collected from several papers.
# Each numbered part is a random draw from the data of one study; scales do not carry over between parts. Substitutions count along the parent as printed.

# Series 1
# Target: RNA binding protein fox-1 homolog 2, RRM domain, GST-SBP tag (RBFOX2, Homo sapiens, UniProt O43251-10, residues 100-194)
# Method: RNA Bind-n-Seq
# Molecule type: RNA
# Sample: in vitro
# Concentration: 365 nM
# Notes: natural RNA segment, single round, ends assumed
# Baseline: no-protein control
# Direction: higher = stronger binding
# Construct (chain): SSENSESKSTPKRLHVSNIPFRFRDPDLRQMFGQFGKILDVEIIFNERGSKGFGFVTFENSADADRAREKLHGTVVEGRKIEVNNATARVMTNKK
Oligonucleotide,RBNS enrichment (R)
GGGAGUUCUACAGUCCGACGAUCCAAGCCCUGCUGAUCAGAGAAAGUCUCUGCAUGUUCUAGUGUUAGUAACUAAUUUUUAUAUAGUUAAUGUAGGAUAAAGUAGAGUGCAUUAAGACACAAUAUUGUAAUCCUGGAAUUCUCGGGUGCCAA,2.27
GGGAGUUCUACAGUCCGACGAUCGUUCUCUCCCAUCCUUGCCCCUGGUUCAGGAGCCAUUCUACCUGCCUCAGUGGCCAGGCGCAAGGCUACAGGUGCAGUCACCUGUUCCCGGCCACCUUCCCUCCCAUCUUUGGAAUUCUCGGGUGCCAA,0.3
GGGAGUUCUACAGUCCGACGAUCCCUCCACAGGUGCCUUAAAGGGCCCUCGUCCACCCAAGGUGGGGGGCAGGGGCCCUCACUCUCCGGCCCUGGUGUGGGGGAGAGAGUGAGGGGUUGGGGGAUCGGCAGUUUGGAAUUCUCGGGUGCCAA,0.616
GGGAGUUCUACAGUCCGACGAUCCCUUUCAGCUACUACGUUACCACGUUCCUAAAACGCAAGCUCUCCGGACCAGACGGACACAGGGAGAAGCUAGUUUCUUUCAUGUGAUUGAAAUGAUGACUCUACUCCUAUGGAAUUCUCGGGUGCCAA,0.355
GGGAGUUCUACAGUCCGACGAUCAUGAACUAUAAUUGAAUAGAUACCAAAAAUAGAAUGACAAAUGUAUUUUAAUAGCAGAUGAGGCAGUUUUAGGAUGAAUUUUCCACUGUUGAUUUUACUUCAAGACAUAGUGGAAUUCUCGGGUGCCAA,0.497
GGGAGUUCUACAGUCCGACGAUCCUUUUACUAAGAAGGGAUUUUUAAAUAUGGUGUCUACCUGGUAUCUCUCUCCCAAUAAGAAGCAGGUGCCUUUGGGGAAUGCUCCAACCUGUUUCAUCCCCAAAAGUUUUUGGAAUUCUCGGGUGCCAA,0.555
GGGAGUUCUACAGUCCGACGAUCCUCUGUGUAGCUUUGCUUAUCCUGGAACUCGAUUUGUUGACCAGGCUGGCCUUGAAUUCUCAAAAAUCCAUCUGCCUCUGCCUUUGCCUCCCCAGGCACCACUACCACCUUGGAAUUCUCGGGUGCCAA,0.418
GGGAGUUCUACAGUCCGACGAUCUACUGACCACUGGGUAUGUAAUCUUUGAGGGAUAUGCGCUUUUAGGAAAAAGGAUUUCCCUUUAAGGGAGCAAUCUAAGAUAGUCUCUGAAAGGCAGAAAGUUUACAAAUUGGAAUUCUCGGGUGCCAA,0.625

# Series 2
# Target: RING finger protein unkempt homolog, zinc fingers 1-6, GST-SBP tag (UNK, Homo sapiens, UniProt Q9C0B0, residues 30-357)
# Sequence of UniProt Q9C0B0 (30-357, looked up): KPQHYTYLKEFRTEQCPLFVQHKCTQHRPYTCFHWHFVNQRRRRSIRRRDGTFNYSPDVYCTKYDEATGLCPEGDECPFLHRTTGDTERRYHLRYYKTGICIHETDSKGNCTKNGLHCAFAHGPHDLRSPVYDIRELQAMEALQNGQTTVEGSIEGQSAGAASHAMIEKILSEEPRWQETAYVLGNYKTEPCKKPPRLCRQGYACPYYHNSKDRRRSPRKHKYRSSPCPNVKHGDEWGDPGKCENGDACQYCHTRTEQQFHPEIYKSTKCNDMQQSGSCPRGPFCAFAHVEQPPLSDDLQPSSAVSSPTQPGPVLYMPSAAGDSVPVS
# Method: RNA Bind-n-Seq
# Molecule type: RNA
# Sample: in vitro
# Concentration: not given
# Notes: RNA with constant flanks, human and mouse sites, ends assumed
# Baseline: input RNA pool
# Direction: higher = stronger binding
Oligonucleotide,bound/input enrichment
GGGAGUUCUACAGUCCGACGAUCGCGGUCAUUUUUGGGCCCGAAGGGACCCCGUUUGAGGAUGGAACAUUUAAGCUUACAAUUGAAUUCACUGAAGAGUAUCCUAAUAAGCCACCUACUGUUAGAUUUGUCUCUAAGAUGUUCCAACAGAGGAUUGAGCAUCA,0.23 ratio
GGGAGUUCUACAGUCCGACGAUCUGUGAAACCCAAAAAUGGACUGUGAACGGACAACUGAGGGUUGGGUUUUUUACCACCAAACUGGUUCCUUCAGGCUCAGAGUUAACGUUUGACUAUCAGUUCCAGAGAUAUGGAAAAGAACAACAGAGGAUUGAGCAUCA,0.284 ratio
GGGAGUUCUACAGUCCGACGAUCAGUUACAGUUAUAUUGCUAUGAUGUUAACAAUGCCCAAAAGCAAGUUGGGGAAUAAAGUGGACUUAUAUUUCCACAUCCUAGCCCAUCACUGAAGGCAGUCAGGGCAGGAACCUGAGACUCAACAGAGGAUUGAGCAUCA,0.185 ratio
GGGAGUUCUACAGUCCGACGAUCAGCCGCCGCAGCCGCACCCCCAGCCGCCGCAGCCGCACCCCCAGCCGCCGCAGCCGCACCCCCAGCCGCCGCAGCCGCACCCCCAGCCGCCGGAGCCGCACCCCUAGCCGUCGGAGCCGCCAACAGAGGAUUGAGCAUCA,1.32 ratio
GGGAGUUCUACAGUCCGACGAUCUCAUUUUUUGCUGGGGAUAAAAAAGAAGCACACAAACUAAAGGAGGACUUUCGACUGCAUUUUAGAAAUAUUUCAAGAAUUAUGGAUUGUGUUGGUUGUUUUAAAUGUCGUCUGUGGGGACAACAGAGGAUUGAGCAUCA,4.11 ratio
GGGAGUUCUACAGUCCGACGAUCUUAAUAUUGCUUCUCCUGCAUGGCAAAACUGCCUAUUCUGCUAUUUAAAAACCCUCAAUGACUUUAUUUUCUACUGCCGCCUUUUUCAUGUGCAACCAAAAUGAAAAUGUUUAAAUUAACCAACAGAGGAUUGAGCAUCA,0.592 ratio
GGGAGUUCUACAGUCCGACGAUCAGGAAAAACCAAACUACAAAGAGAUUUGUUUAUAAUAUACCGCCUAACAGUGAGACAAAGGUAGAAGAUUGCUCAGUGAUGCAGCCCCCUGCUGCCUACCCAGAAGAAAGCAAGGCCUUACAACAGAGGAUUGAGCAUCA,0.259 ratio
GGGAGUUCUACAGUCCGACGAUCAAGAAUGAAUUAAAGAACAAAGAAUUGACAUUGGAACAUAUGGAAACAGAGAGGCUUGAGUUGGCUCAGAAACUUAAUGAAAAUUAUGAGGAAGUGAAAUCUAUAACCAAAGAAAGAAAACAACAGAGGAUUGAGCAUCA,0.285 ratio

# Series 3
# Target: CCNB2, cyclin fold, Cln2 fusion (human)
# Method: yeast growth competition, sequencing
# Sample: yeast
# Notes: strong parent motif
# Baseline: not given
# Direction: higher = stronger binding
# Parent: BRCA2 docking peptide (human); PSIKRNLLNEFDR
Change,normalised enrichment score
E10Q,0.864
R13M,3.9
R5W,0.227
L8T,1.64
D12N,4.2
S2L,3.24
L7Y,0.129
R13F,3.78
I3D,-0.241
F11R,0.56
K4W,0.0803
S2A,2.86
F11G,0.526
P1Q,3.75
L8V,2.36
L8N,1.22
N9V,3.75

# Series 4
# Target: Interferon regulatory factor 3, full length, phosphomimetic (IRF3, Homo sapiens, UniProt Q14653, residues 1-427, S386D/S396D/S398D/S402D/T404D/S405D)
# Sequence of UniProt Q14653 (whole entry, unmodified, looked up): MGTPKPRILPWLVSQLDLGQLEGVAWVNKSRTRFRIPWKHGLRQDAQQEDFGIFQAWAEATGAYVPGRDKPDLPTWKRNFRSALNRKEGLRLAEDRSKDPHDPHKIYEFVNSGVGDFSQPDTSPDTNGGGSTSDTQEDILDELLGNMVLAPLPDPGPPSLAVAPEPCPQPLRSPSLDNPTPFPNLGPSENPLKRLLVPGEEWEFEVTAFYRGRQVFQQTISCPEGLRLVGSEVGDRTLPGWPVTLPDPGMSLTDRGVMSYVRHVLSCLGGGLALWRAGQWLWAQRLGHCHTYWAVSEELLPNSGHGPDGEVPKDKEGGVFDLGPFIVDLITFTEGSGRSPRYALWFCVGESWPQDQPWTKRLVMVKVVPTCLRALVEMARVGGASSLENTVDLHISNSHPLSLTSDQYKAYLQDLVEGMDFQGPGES
# Method: protein-binding microarray
# Molecule type: double-stranded DNA, one strand shown
# Sample: in vitro
# Concentration: 2540 nM top
# Notes: 60-bp whole probe
# With: salmon DNA 0.4 mg/ml
# Baseline: random background probes
# Direction: higher = stronger binding
# Shared flanks, not repeated: GCCTAGCAC … GTCTTGATTCGCTTGACGCTGCTG
Oligonucleotide,fitted relative affinity [z-score]
GACGAAGTGGGGTATCGAGACGTGCTA,-0.635
TCAGTTCTCCCTTTCAGTTTGTGCTAG,4.43
TTAGGTATCGGGATTCGGTTAGTGCTA,1.64
GACGGGCTGCTTCTCCTGACGTGCTAG,-0.757
TTAGGTATCGACACTGGGTGAGTGCTA,0.148
GACGATCTCAGACTTGAGACGTGCTAG,0.494
TTAGATATCAGACTAGATTAGTGCTAG,0.5
TTAGGACTGCTTCTCCCTTAGTGCTAG,-0.104
TCAGCTCTTATATACCTGACTGTGCTA,0.142
GACGGTATCGGGCATCGGGACGTGCTA,0.36
ATCTTCATGAAATTTTAATAAGTGCTA,0.26
TCAGTGCTCATGCTTCTTACTGTGCTA,-0.65
GACGCACTGGGACTGGGGACGTGCTAG,-0.696
TTAGATTTCAGTTCCGACTAGTGCTAG,3.23
TTAGGTTTCGGTTCCGGGTAGTGCTAG,10.3
GTAGGACTGGGTCTCGGTTAGTGCTAG,-0.882
GACGGTTTCGACTTCCGGGACGTGCTA,3.75
GTCGGTCTCGGTCTCGGGACGTGCTAG,2.53
TTAGATATCAGTATCAATTAGTGCTAG,1.33

# Repeated from above (series 3):
Change,normalised enrichment score
F11G,0.526
S2A,2.86
D12N,4.2
R13F,3.78
L8N,1.22
F11R,0.56
R13M,3.9
S2L,3.24
I3D,-0.241
